# Assay results from different studies.
# Numbered parts are unrelated; each lists some results of a single study.

# Set 1 — technique: universal PBM; molecule type: double-stranded DNA, one strand shown; matrix: in vitro; concentration: not given; direction: higher = stronger binding
# Target: Sal-like protein 4, full length isoform B (SALL4, Homo sapiens, UniProt Q9UJQ4-2, residues 1-616)
# Notes: 8-mer, flanks averaged, mean of replicates
# Target sequence (chain): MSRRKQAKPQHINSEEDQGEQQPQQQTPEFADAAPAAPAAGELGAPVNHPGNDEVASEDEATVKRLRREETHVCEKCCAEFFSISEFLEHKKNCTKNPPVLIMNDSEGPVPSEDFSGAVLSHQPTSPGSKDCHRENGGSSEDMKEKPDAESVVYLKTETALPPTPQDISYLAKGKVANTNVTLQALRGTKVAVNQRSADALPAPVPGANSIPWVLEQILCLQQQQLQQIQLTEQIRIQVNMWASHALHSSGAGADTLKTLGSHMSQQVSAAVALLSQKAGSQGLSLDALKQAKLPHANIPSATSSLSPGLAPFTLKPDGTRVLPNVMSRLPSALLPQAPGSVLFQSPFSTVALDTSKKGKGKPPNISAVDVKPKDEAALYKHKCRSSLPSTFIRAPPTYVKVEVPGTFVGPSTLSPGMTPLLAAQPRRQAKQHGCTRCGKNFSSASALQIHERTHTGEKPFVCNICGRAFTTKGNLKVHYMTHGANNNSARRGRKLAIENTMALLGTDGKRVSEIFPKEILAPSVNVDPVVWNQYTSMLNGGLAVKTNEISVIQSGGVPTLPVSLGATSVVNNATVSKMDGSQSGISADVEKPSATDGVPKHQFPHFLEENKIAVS
Oligonucleotide,E-score
CCGTACTC,-0.159
AGATGCTA,0.11
CAAGGATA,0.0915
CCACAACA,-0.038
CTAGTTTC,-0.0289

# Set 2 — technique: protein binding microarray; molecule type: double-stranded DNA, one strand shown; matrix: in vitro; concentration: not given; baseline: not given; direction: higher = stronger binding
# Target: Histone acetyltransferase KAT6A, both winged helices, GST fusion (KAT6A, Homo sapiens, UniProt Q92794, residues 1-181)
# Notes: 8-mer, flanks averaged, mean of 2 arrays, mostly near background
# Residues (chain): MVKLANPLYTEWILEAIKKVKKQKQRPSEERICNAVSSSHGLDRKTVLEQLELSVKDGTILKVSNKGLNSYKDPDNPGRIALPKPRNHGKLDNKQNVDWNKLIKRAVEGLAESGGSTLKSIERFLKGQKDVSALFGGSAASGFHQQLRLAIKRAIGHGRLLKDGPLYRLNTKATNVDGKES
Oligonucleotide,E-score
ATGGGTAA,-0.152
CTCTATCA,-0.0881
ACTCACCG,0.0197
ACTCTATA,0.0997
ATAGCATG,-0.186
AAAAAATA,-0.136
TACATGGA,-0.133
GGCCGCTA,0.284

# Set 3 — read-out: enzyme activity; action: inhibitor; concentration: 10 µM
# Target: Replicase polyprotein 1ab, 3C-like proteinase (rep, Middle East respiratory syndrome-related coronavirus, UniProt K9N7C7)
SMILES,inhibition [%]
Cc1c(-c2cnccn2)ssc1=S,10
Oc1cc2c(cc1O)[C@@H]1c3ccc(O)c(O)c3OC[C@]1(O)C2,5
O=c1[nH]nc(Sc2ncc([N+](=O)[O-])s2)n1-c1ccc2c(c1)OCCO2,84

# Set 4 — action: inhibitor; concentration: 20 µM
# Target: Replicase polyprotein 1ab, nsp13 helicase (rep, Severe acute respiratory syndrome coronavirus 2, UniProt P0DTD1)
Compound,inhibition [%]
C[C@H](NCc1ccc(OCc2ccccc2F)cc1)C(N)=O,2.45
CCOC(CN1CCN(CC(C)C(=O)c2ccccc2)CC1)c1ccccc1 (centres unmarked),-1.36
NS(=O)(=O)NCCNc1nonc1/C(=N/O)Nc1ccc(F)c(Br)c1,-2.58
NC[C@H]1CC[C@H](C(=O)O)CC1,0.8
CN(C)CCc1c[nH]c2ccc(C[C@H]3COC(=O)N3)cc12,11.2
C[C@@H]1CN(CC(=O)Nc2ccc3c(c2)Cc2cccc(-c4cc(=O)cc(N5CCOCC5)o4)c2S3)C[C@H](C)O1,12.6
CC(C)[C@H](C(=O)Nc1ccc(C(=O)NO)cc1)c1ccccc1,-1.47
NS(=O)(=O)c1cc2c(cc1Cl)N=CNS2(=O)=O,10.1
N[C@H](C(=O)O)c1ccc(O)c(C(=O)O)c1,2.87
CC(C)OC(=O)N1CCC(Oc2ncnc3c2cnn3-c2ccc(S(C)(=O)=O)cc2F)CC1,2.7
C[C@H](N)C(=O)N[C@@H](C)P(=O)(O)O,-0.65
O=C1NCCN1c1ncc([N+](=O)[O-])s1,6.6
CC(C)C[C@H](NC(=O)[C@H](CCCCN)NC(=O)[C@H](CCCNC(=N)N)NC(=O)[C@H](C)NC(=O)[C@H](CO)NC(=O)[C@H](CCCCN)NC(=O)[C@H](CCCNC(=N)N)NC(=O)[C@H](C)NC(=O)CNC(=O)[C@@H](NC(=O)[C@H](Cc1ccccc1)NC(=O)CNC(=O)CNC(=O)[C@@H](N)Cc1ccccc1)[C@@H](C)O)C(=O)N[C@@H](C)C(=O)N[C@@H](CC(N)=O)C(=O)N[C@@H](CCC(N)=O)C(=O)O,2.05
C=C(C)[C@@H]1CCC(C)=C[C@H]1c1c(OC)cc(C)cc1OC,4.96
CN1CCCN(C(c2ccccc2)c2ccc(Cl)cc2)CC1 (centres unmarked),-2.46
O=C1NC(=O)c2cc(Nc3ccc(F)cc3)c(Nc3ccc(F)cc3)cc21,1.38
CC(C)(N)CC12CC3CC(CC(C3)C1)C2,4.53
CC(C)N1CCN(c2ccc(OC[C@H]3CO[C@](Cn4cncn4)(c4ccc(Cl)cc4Cl)O3)cc2)CC1 (racemic),-2.99
Cc1cccc(/C=N/Nc2cc(N3CCOCC3)n3nc(-c4ccncc4)cc3n2)c1,8.69
COc1cc(C(=O)N(CCC2CCCN2C)C/C(C)=C/c2ccccc2F)cc(OC)c1OC (centres unmarked),6.08
O=C(NCCN1CCC2(CC1)C(=O)NCN2c1cccc(F)c1)c1ccc(F)c(F)c1,12.2
c1ccc(Cn2c(-c3ccc(OC[C@H](C4CCNCC4)n4c(-c5ccccc5)nc5ccccc54)cc3)nc3ccccc32)cc1,52.1
NCCCC(N)(C(=O)O)C(F)F (centres unmarked),-3.04
C[C@@H]1[C@H](O)[C@@H](C)/C=C/C=C/C=C/C=C/C=C/C=C/C=C/[C@H](O[C@@H]2O[C@H](C)[C@@H](O)[C@H](N)[C@@H]2O)C[C@@H]2O[C@](O)(C[C@@H](O)C[C@@H](O)[C@H](O)CC[C@@H](O)C[C@@H](O)CC(=O)O[C@H]1C)C[C@H](O)[C@H]2C(=O)O,15.7
N#CCC(=O)NN,2.38

# Set 5 — technique: protein-binding microarray; molecule type: double-stranded DNA, one strand shown; matrix: in vitro; concentration: 2540 nM top; notes: 60-bp whole probe; added: salmon DNA 0.4 mg/ml; baseline: random background probes; direction: higher = stronger binding
# Target: Interferon regulatory factor 3, full length, phosphomimetic (IRF3, Homo sapiens, UniProt Q14653, residues 1-427, S386D/S396D/S398D/S402D/T404D/S405D)
# Shared flanks, not repeated: GCCTAGCAC … GTGCTAGGTCTTGATTCGCTTGACGCTGCTG
# Target sequence (chain): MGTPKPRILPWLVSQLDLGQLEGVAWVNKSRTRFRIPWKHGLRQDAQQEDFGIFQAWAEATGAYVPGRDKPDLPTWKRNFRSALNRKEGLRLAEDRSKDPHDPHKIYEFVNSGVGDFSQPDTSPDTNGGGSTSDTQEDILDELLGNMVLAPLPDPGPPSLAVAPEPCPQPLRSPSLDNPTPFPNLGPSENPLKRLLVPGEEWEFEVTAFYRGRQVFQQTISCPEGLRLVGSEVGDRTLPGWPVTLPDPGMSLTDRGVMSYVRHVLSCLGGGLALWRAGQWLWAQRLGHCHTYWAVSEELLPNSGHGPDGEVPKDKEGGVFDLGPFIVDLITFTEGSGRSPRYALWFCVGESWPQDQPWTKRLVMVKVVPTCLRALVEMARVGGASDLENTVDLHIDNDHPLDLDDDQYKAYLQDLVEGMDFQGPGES
Oligonucleotide,fitted relative affinity
CTTCATGTTGCTCTCCGGGG,0.158 z-score
GTCGGTATCGGACTGGGGAC,2.68 z-score
GACGGTATCGGTCTAGGGAC,3.27 z-score
TCAGAGTTCTGTTGCAAACT,-0.141 z-score
GACGGTTTCGTTTTCCTGAC,8.93 z-score
GTAGATTTCAGTTTCGATTA,6.1 z-score
GACGGATTGCTTATCCTGAC,0.235 z-score
AAGCCAGGACGAGCTCGCCT,-1.12 z-score

# Set 6 — cell line: HEK-293T/ACE2; read-out: pseudovirus infection; organism: VSV pseudotyped with SARS-CoV-2 spike; concentration: concentration not given; baseline: vehicle-treated
SMILES,GFP-positive cells
CN(C)C/C=C/C(=O)Nc1cc2c(Nc3ccc(F)c(Cl)c3)ncnc2cc1O[C@H]1CCOC1.O=C(O)/C=C\C(=O)O.O=C(O)/C=C\C(=O)O,47.8%
CC(=O)O[C@]1(C(C)=O)CC[C@H]2[C@@H]3C[C@H](C)C4=CC(=O)CC[C@]4(C)[C@H]3CC[C@@]21C,92.5%
CO[C@H]1C[C@@H]2CC[C@@H](C)[C@@](O)(O2)C(=O)C(=O)N2CCCC[C@H]2C(=O)O[C@H]([C@H](C)C[C@@H]2CC[C@@H](OCCO)[C@H](OC)C2)CC(=O)[C@H](C)/C=C(\C)[C@@H](O)[C@@H](OC)C(=O)[C@H](C)C[C@H](C)/C=C/C=C/C=C/1C,109%
COC(=O)N[C@H](C(=O)N[C@@H](Cc1ccccc1)[C@@H](O)CN(Cc1ccc(-c2ccccn2)cc1)NC(=O)[C@@H](NC(=O)OC)C(C)(C)C)C(C)(C)C.O=S(=O)(O)O,64.1%

# For quick reference, copied from above (set 4):
Compound,inhibition [%]
N[C@H](C(=O)O)c1ccc(O)c(C(=O)O)c1,2.87
CC(C)OC(=O)N1CCC(Oc2ncnc3c2cnn3-c2ccc(S(C)(=O)=O)cc2F)CC1,2.7
C[C@H](N)C(=O)N[C@@H](C)P(=O)(O)O,-0.65
O=C1NCCN1c1ncc([N+](=O)[O-])s1,6.6
